{"data": "Measured values collected from several papers", "note": "± marks the error that the study gave."}
{"SMILES": "Cc1cc(Nc2ncnc3ccc(NC4=NC(C)(C)CO4)cc23)ccc1Oc1ccn2ncnc2c1", "test system": "human, plasma", "conditions": "oral, 300 mg, day 1, single dose alone", "measurement": "Tmax, median", "value": "2 h"}
{"SMILES": "Cn1ncc(S(=O)(=O)NC2CC(C)(C)Oc3ccc(F)cc32)c1C(=O)O (stereo not drawn)", "test": "colloidal aggregate formation, dynamic light scattering", "test system": "50 mM potassium phosphate buffer", "conditions": "200 µM, pH 7.0, 1% DMSO", "how to read": "higher = more aggregation", "measurement": "DLS scattered light intensity", "value": "2.3e+08 counts/s"}
{"SMILES": "COc1cc(Nc2ncc3c(n2)-c2ccc(Cl)cc2C(c2c(F)cccc2OC)=NC3)ccc1C(=O)O", "test": "item: Dyspnea, grade 2", "test system": "cancer patients, phase 1/2", "conditions": "oral, dose not given, added: pembrolizumab", "measurement": "patients with adverse event", "value": "8%"}
{"SMILES": "CNC(=O)c1cccc(-c2ccc(O[C@H]3O[C@H](CO)[C@@H](O)[C@H](O)[C@@H]3O)c(C)c2)c1", "test system": "male Sprague-Dawley rat, plasma", "conditions": "intravenous, 3 mg/kg, group mean", "measurement": "terminal half-life", "value": "0.312 h"}
{"SMILES": "CCCCOC(=O)N1CCN(C(=O)[C@H](CP(=O)(O)O)NC(=O)c2cc(N3CC[C@H](OC)C3)nc(-c3ccccc3)n2)CC1", "test system": "human", "conditions": "subcutaneous, 8 mg, 24 h post-dose", "how to read": "reference: baseline", "measurement": "change in heart rate", "value": "0.9 ± 8.6 beats/min"}
{"SMILES": "N#Cc1cc(NC(=O)[C@H]2c3ccccc3C(=O)N(CC(F)(F)F)[C@@H]2c2cccnc2)ccc1F", "test system": "human", "conditions": "oral, 600 mg, fed, population mean", "measurement": "CL", "value": "535 mL/min"}
{"SMILES": "Cc1cc(NC2CCN(C(=O)OC3CCN(C(=O)/C=C/CN(C)C)C3)CC2)n2ncc(C(C)C)c2n1 (stereo not drawn)", "test": "Phase I dose escalation CTCAE v4.0, item: pain in extremity", "test system": "patients with advanced solid tumours", "conditions": "dose not given, TIW dosing any grade", "measurement": "patients with adverse event", "value": "0%"}
{"SMILES": "CC(C)[C@H](N)C(=O)NCCCS(=O)(=O)O", "test system": "human both sexes, plasma", "conditions": "oral, 256.5 mg once daily, day 1, fed capsule", "measurement": "AUC(0-12)", "value": "10400 ng·h/mL"}
{"SMILES": "c1ccc(-c2nc(N3CCC(c4ccccn4)C3)c3ccccc3n2)nc1 (stereo not drawn)", "test system": "female Balb/c mice, blood", "conditions": "intravenous, 2 mg/kg, 8 h, mean, added: 1-aminobenzotriazole co-dosed", "measurement": "blood concentration", "value": "153 ng/mL"}
{"SMILES": "CCOc1c([C@H](C)n2nc(C)c3c(N)ncnc32)cc(Cl)c(F)c1[C@@H]1CNC(=O)C1", "test system": "human, all cohorts, plasma", "conditions": "oral, 20 mg, day 15", "measurement": "Cmax", "value": "1810 nM"}
{"SMILES": "Cc1nc2cccc(OCC(C)(C)C(=O)NC(C)C)c2c(N)c1C(=O)O.Cc1nc2cccc(OCC(C)(C)C(=O)NC(C)C)c2c(N)c1C(=O)O.O=S(=O)(O)O", "test system": "male Sprague-Dawley rat, plasma", "conditions": "oral, 30 mg/kg", "measurement": "Tmax", "value": "0.25 h"}
{"SMILES": "O=C(CCCN1CC=C(n2c(=O)[nH]c3ccccc32)CC1)c1ccc(F)cc1", "test system": "male Hartley guinea pig, anaesthetized", "conditions": "intravenous infusion, 0.1 mg/kg, 10 min infusion, post-infusion", "measurement": "QTc interval", "value": "340 ± 0.9 ms"}
{"SMILES": "CNCCOC12CC3(C)CC(C)(CC(Cn4ncc(-c5ccc(N6CCc7cccc(C(=O)Nc8nc9ccccc9s8)c7C6)nc5C(=O)O)c4C)(C3)C1)C2", "test system": "beagle dog, male, anaesthetised", "conditions": "intravenous bolus, 0.03 mg/kg, 30 min", "how to read": "reference: baseline", "measurement": "PR interval change", "value": "-6 ms"}
{"SMILES": "CC1(C)CCc2sc(CNS(=O)(=O)c3occc3C(=O)O)cc2C1", "test": "colloidal aggregate formation, dynamic light scattering", "test system": "50 mM potassium phosphate buffer", "conditions": "200 µM, pH 7.0, 1% DMSO", "how to read": "higher = more aggregation", "measurement": "DLS scattered light intensity", "value": "477000 counts/s"}
{"SMILES": "CCC(C)n1ncn(-c2ccc(N3CCN(c4ccc(OCC5COC(Cn6cncn6)(c6ccc(Cl)cc6Cl)O5)cc4)CC3)cc2)c1=O (stereo not drawn)", "test system": "human, plasma", "conditions": "oral, dose not given, day 15 predose, geometric mean", "measurement": "trough plasma concentration", "value": "134 ng/mL"}
{"SMILES": "N#C[C@@]1(c2ccc3c(N)ncnn23)O[C@H](CO)[C@@H](O)[C@H]1O", "test system": "beagle dog, male, plasma", "conditions": "oral, 6.5 mg/kg, capsule", "measurement": "half-life", "value": "3.39 h"}
{"SMILES": "O=[N+]([O-])c1cnc2ccccc2c1O", "test": "haemolysis", "test system": "sheep erythrocytes", "conditions": "1 h, pH 7.5", "measurement": "HC50", "value": "> 128 µg/mL"}
{"SMILES": "Cc1cc(-c2nccc3c2ccn3CC(=O)Nc2ccc(-c3cnccn3)cn2)ccn1", "test system": "human", "conditions": "15 mg once daily, multiple ascending dose", "measurement": "vessel puncture site haematoma", "value": "0%"}
{"SMILES": "C[C@@H](O)[C@H]1C(=O)N2C(C(=O)O)=C(S[C@@H]3CN[C@H](C(=O)N(C)C)C3)[C@H](C)[C@H]12", "test system": "human whole blood", "conditions": "concentration not given, 8 h, 4 °C", "measurement": "deviation from nominal concentration", "value": "2.4%"}
{"SMILES": "Cc1oc(C)c(S(=O)(=O)NCc2ccc(Br)c(F)c2F)c1C(=O)O", "test": "colloidal aggregate formation, dynamic light scattering", "test system": "50 mM potassium phosphate buffer", "conditions": "200 µM, pH 7.0, 1% DMSO", "how to read": "higher = more aggregation", "measurement": "DLS scattered light intensity", "value": "456000 counts/s"}
{"SMILES": "C=CC[C@@H]1/C=C(\\C)C[C@H](C)C[C@H](OC)[C@H]2O[C@@](O)(C(=O)C(=O)N3CCCC[C@H]3C(=O)O[C@H](/C(C)=C/[C@@H]3CC[C@@H](O)[C@H](OC)C3)[C@H](C)[C@@H](O)CC1=O)[C@H](C)C[C@@H]2OC", "test system": "Wistar Kyoto rat, male, plasma", "conditions": "ip, 0.5 mg/kg/day, day 18", "measurement": "plasma K+ level", "value": "5.4 ± 0.5 mmol/L"}
{"SMILES": "CC(=O)Oc1ccccc1C(=O)O", "test system": "male Hartley guinea pig, anaesthetized", "conditions": "intravenous, 1 mg/kg, baseline before infusion", "measurement": "QTc interval", "value": "308 ± 0.3 ms"}
{"SMILES": "CC(C)(C(=O)N1CCOc2c(C#N)cncc2C1)C(F)F", "test": "item: Investigations", "test system": "human", "conditions": "oral, 15 mg twice daily, 14 days, multiple ascending dose", "measurement": "subjects with adverse event", "value": "12.5%"}
{"SMILES": "COc1cc(C(=O)N2CCC3(CC2)CC(=O)c2c(cnn2C(C)C)C3)cc(-c2ccc(C(=O)O)cc2)n1", "test": "item: HDL cholesterol", "test system": "human, fasting serum", "conditions": "1 mg every 12 h, day 13, adjusted geometric mean", "how to read": "reference: baseline and placebo", "measurement": "placebo-adjusted change from baseline", "value": "-6.1%"}
{"SMILES": "Nc1ccn([C@@H]2O[C@H](CO)[C@@H](O)C2(F)F)c(=O)n1", "test": "item: dFdU", "test system": "human, plasma", "conditions": "intravenous, 800 mg/m^2, added: after paricalcitol", "measurement": "Cmax, mean", "value": "16100 ng/mL"}
{"SMILES": "C/C(=N\\c1ccc(O)cc1)c1cc2ccccc2n1C", "test system": "processed rat plasma sample", "conditions": "1.5 ng/mL, 24 h, room temperature, autosampler tray", "how to read": "reference: nominal", "measurement": "remaining compound", "value": "93.1 ± 3.4%"}
{"SMILES": "Cc1cc(-c2nnc(N)nc2-c2ccc(F)cc2)cc(Cl)n1", "test": "item: decreased appetite, any grade", "test system": "post-IO NSCLC patients", "conditions": "oral, 100 mg once daily", "measurement": "incidence of treatment-related AE", "value": "11.8%"}
{"SMILES": "COc1ccnc(C(=O)N[C@H]2COC(=O)[C@H](Cc3ccccc3)[C@@H](O)[C@H](C)OC2=O)c1O", "test": "soil adsorption", "test system": "soil", "conditions": "pH 6.9, organic carbon 0.8 %", "measurement": "Freundlich coefficient KF", "value": "23 mL/g"}
{"SMILES": "O=C(Nc1nc2cccc(-c3ccc(CN4CCS(=O)(=O)CC4)cc3)n2n1)C1CC1", "test": "item: food allergy", "test system": "human rheumatoid arthritis patients", "conditions": "oral, 300 mg once daily, 4 weeks, regardless of relatedness", "measurement": "treatment-emergent adverse events", "value": "0%"}
{"SMILES": "O=C1CCCN1c1ccc(Cl)c(NS(=O)(=O)c2cccc(Cl)c2O)c1", "test": "colloidal aggregate formation, dynamic light scattering", "test system": "50 mM potassium phosphate buffer", "conditions": "200 µM, pH 7.0, 1% DMSO", "how to read": "higher = more aggregation", "measurement": "DLS scattered light intensity", "value": "464000 counts/s"}
{"SMILES": "CCN1/C(=C/C(C)=O)Sc2ccc(F)cc21", "test system": "cynomolgus monkey", "conditions": "oral, 10 mg/kg, 24 h post-dose", "how to read": "reference: pre-dose", "measurement": "systolic blood pressure change", "value": "107 ± 5.5%"}
{"SMILES": "C=CC(=O)Nc1cc(Nc2nccc(-c3cn(C)c4ccccc34)n2)c(OC)cc1N(C)CCN(C)C", "test": "storage stability", "test system": "human plasma", "conditions": "72 h, -80 °C, medium QC level", "measurement": "recovery", "value": "94.5%"}
{"SMILES": "N#Cc1ccc2c(c1)[C@H]1CCCN(C(=O)c3ccc4[nH]cnc4c3)[C@H]1C2", "test system": "human, male", "conditions": "40 mg, day 7", "measurement": "androstenedione level", "value": "6.3 nmol/L"}
{"SMILES": "Cc1ccc(C(=O)N(CCCN)C(c2nc3snc(C)c3c(=O)n2Cc2ccccc2)C(C)C)cc1 (stereo not drawn)", "test system": "patients", "conditions": "intravenous, dose not given, all doses", "measurement": "discontinuation due to adverse events", "value": "5.1%"}
{"SMILES": "C[C@H](CCC(=O)O)[C@H]1CC[C@H]2[C@@H]3[C@H](O)C[C@@H]4C[C@H](O)CC[C@]4(C)[C@H]3C[C@H](O)[C@]12C", "test system": "human, plasma", "conditions": "endogenous baseline diurnal", "measurement": "daily mean concentration", "value": "41 ± 9.6 nM"}
{"SMILES": "COCCOc1cnc2ccn([C@H](C)c3nnc4c(F)cc(-c5cnn(C)c5)cn34)c(=O)c2c1", "test system": "cancer patients", "conditions": "oral, 300 mg once daily, 28 days, at mean Cmax 4140 ng/mL", "measurement": "QTcF change", "value": "~9.4 ms"}
{"SMILES": "CCOc1cccc(C(=O)Nc2ccc(-c3nc4ccccc4[nH]3)cc2)c1", "test": "haemolysis", "test system": "sheep erythrocytes", "conditions": "1 h, pH 7.5", "measurement": "HC50", "value": "> 128 µg/mL"}
{"SMILES": "CN1C[C@H](COc2nccc3c(NCc4ccco4)cc(Cl)nc23)OC1=O", "test system": "rabbit, isolated Langendorff heart", "conditions": "dose not given", "measurement": "effect on QT", "value": "negative"}
{"SMILES": "Cc1ccc(Sc2ccccc2N2CCNCC2)c(C)c1", "test": "item: Headache", "test system": "healthy adult men", "conditions": "oral, 5 mg single dose, 10 day", "measurement": "participants with TEAE", "value": "0%"}
{"note": "For quick reference, copied from above:"}
{"SMILES": "COc1cc(Nc2ncc3c(n2)-c2ccc(Cl)cc2C(c2c(F)cccc2OC)=NC3)ccc1C(=O)O", "test": "item: Dyspnea, grade 2", "test system": "cancer patients, phase 1/2", "conditions": "oral, dose not given, added: pembrolizumab", "measurement": "patients with adverse event", "value": "8%"}
{"SMILES": "CNC(=O)c1cccc(-c2ccc(O[C@H]3O[C@H](CO)[C@@H](O)[C@H](O)[C@@H]3O)c(C)c2)c1", "test system": "male Sprague-Dawley rat, plasma", "conditions": "intravenous, 3 mg/kg, group mean", "measurement": "terminal half-life", "value": "0.312 h"}
{"SMILES": "CCCCOC(=O)N1CCN(C(=O)[C@H](CP(=O)(O)O)NC(=O)c2cc(N3CC[C@H](OC)C3)nc(-c3ccccc3)n2)CC1", "test system": "human", "conditions": "subcutaneous, 8 mg, 24 h post-dose", "how to read": "reference: baseline", "measurement": "change in heart rate", "value": "0.9 ± 8.6 beats/min"}
